Measurements of several laboratories.
Every numbered part comes from another study and shows a few of its results, in no order. Changes are numbered by the printed parent chain.

Study 1
Target: ABI1, truncated, D143A, DHFR fusion (Arabidopsis thaliana)
Technique: DHFR PCA, deep sequencing
Sample: yeast
Setting: methotrexate growth selection, single substitutions
Together with: (+)-ABA 200 µM
Relative to: wild-type fitted maximum
Reading: higher = stronger binding
Starting sequence: PYL1, truncated, DHFR fusion (Arabidopsis thaliana); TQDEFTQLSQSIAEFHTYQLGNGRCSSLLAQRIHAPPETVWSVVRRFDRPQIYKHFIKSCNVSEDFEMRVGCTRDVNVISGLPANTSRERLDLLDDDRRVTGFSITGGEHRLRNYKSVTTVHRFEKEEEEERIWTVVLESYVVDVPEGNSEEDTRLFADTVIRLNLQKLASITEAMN; partner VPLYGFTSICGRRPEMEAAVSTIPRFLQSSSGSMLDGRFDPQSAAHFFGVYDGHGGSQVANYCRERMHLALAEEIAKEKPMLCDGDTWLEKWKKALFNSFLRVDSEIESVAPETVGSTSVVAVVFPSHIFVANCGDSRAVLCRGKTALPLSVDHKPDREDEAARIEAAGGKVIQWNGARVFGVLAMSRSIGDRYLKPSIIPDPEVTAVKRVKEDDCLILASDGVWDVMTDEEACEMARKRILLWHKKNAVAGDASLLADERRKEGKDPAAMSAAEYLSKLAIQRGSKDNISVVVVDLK
Variant	relative binding score [%]
R123Y	103
S80C	45.9
R32Q	99.7
D92V	74.5
D65Y	85
N22S	100
V136K	31.2
K116C	93.3
D92Q	66.2
C25F	72.6
Y141D	2.36
C60F	10.8
E147Y	91.2
E152A	97.5
S87T	78.2

Study 2
Target: Ras GTPase-activating protein-binding protein 1, C-terminal RGG region (G3BP1, Homo sapiens, UniProt Q13283)
UniProt Q13283, sequence (whole entry, looked up): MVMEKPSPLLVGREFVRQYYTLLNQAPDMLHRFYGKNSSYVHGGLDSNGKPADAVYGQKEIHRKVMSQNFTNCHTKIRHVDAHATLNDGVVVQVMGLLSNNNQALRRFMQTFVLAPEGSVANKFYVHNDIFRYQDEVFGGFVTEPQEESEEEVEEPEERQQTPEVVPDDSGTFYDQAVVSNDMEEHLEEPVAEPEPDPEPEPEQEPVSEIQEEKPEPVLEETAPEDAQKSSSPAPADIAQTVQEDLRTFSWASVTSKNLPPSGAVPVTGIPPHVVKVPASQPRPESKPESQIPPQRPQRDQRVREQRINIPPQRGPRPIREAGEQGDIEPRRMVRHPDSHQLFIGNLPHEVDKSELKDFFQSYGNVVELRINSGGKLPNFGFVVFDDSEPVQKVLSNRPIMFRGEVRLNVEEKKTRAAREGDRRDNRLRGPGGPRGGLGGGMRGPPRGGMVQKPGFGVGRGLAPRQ
Technique: RNA Bind-n-Seq
Form: RNA
Sample: in vitro
Concentration: 1 µM
Setting: whole 134-nt RNA, ends assumed
Together with: 150 mM KCl
Relative to: input library
Reading: higher = stronger binding
Constant ends, left off below: GGGAGUUCUACAGUCCGACGAUC … UGGAAUUCUCGGGUGUCAAGG
Sequence	log2 enrichment
AGUCCUGUGCUACACAUCGUAUGUACCGAAUCGGAAAAAGGGGAAAAAGGAAAAAGGAAAGUAUUAUGUUACGCCGUUCGGAUCUGCACU	-1.46
GCAGGAAGUAAAAACAAAUGGAAAUGCUUCGGAUAGUGGCAGGAAAGGGGGUUGCUAAGGAAAGGGUGGGAUGGGAGUGGGUAAAGAGUU	1.83
GCAGGAAGUAAAAACAAAUGGAAAUGCUUCGGAUAGUGAAAGGGGUGGGGGUUGCUAAGGAAAGGGUGGGAUGGGAGUGGGUAAAGAGUU	1.83
AAGUCCUGUGCUACACAUCGUAUGUACCGAAUCGGGGAAAGGGGAAAGGGAAAGGGGAAAGUAUUAUGUUACGCCGUUCGGAUCUGCACU	0.998
AAGUCCUGUGCUACACAUCGUAUGUACCGAAUCGGGAAAGGGUUUUUGGGAAAGGGAAAGUAUUAUGUUACGCCGUUCGGAUCUGCACUU	0.631
CAAGUCCUGUGCUACACAUCGUAUGUACCGAAUCGGAAAAAAAGGAAAGGAAAGGAAAGUAUUAUGUUACGCCGUUCGGAUCUGCACUUC	-1.86
CACAGACAACACGCACCCACACAGACACAGAGGGAAGGGGUUGGGAUGGGGACAGGGUGCACAGCAGGGCGGGGUAGGAUCCCAGCCCCU	-0.901
UGGCCCUGGUGGCAUGCGGGGAGGAAGAGGUGGCCUCAUGGAUCGUGGUGGUCCCAGUGGAAUGUUCAGAGGUGGCCGUGGUGGAGACAG	1.72
CCUCAAGUCCUGUGCUACACAUCGUAUGUACCGAAUCGGGCCGGCCGGCCGGGAAAGUAUUAUGUUACGCCGUUCGGAUCUGCACUUCCA	-0.948

Study 3
Target: NFE2L3, bZIP domain (human)
Technique: DHFR protein complementation
Sample: yeast
Setting: single substitutions, most at no-binding floor
Relative to: wild-type JUN-FOS pair
Reading: higher = stronger binding
Starting sequence: JUN, bZIP domain (human); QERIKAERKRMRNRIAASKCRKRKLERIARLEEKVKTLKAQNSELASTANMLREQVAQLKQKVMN; partner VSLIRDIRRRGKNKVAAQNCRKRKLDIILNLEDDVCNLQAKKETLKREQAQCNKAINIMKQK
Variant	binding fitness [natural log]
N42T	-1.44
A57R	-1.17
I28A	-1.39
L45S	-1.54
S47C	-1.53
L45F	-1.3
T37Q	-1.49
A46E	-1.57
L38T	-1.55
L38H	-1.48
L45W	-1.58
A46M	-1.58
Q55I	-1.51
Q55N	-1.62
K39R	-1.38
I28T	-1.28
A40V	-1.28
A29C	-1.46
L31D	-1.56
V35W	-1.34
A29T	-1.35
M51G	-1.34
E44H	-1.54

Study 4
Target: CCNA2, cyclin fold, Cln2 fusion (human)
Technique: yeast growth competition, sequencing
Sample: yeast
Setting: weak parent motif
Relative to: not given
Reading: higher = stronger binding
Starting sequence: AKAP12 docking peptide (human); GSPLKKLFTSTGL
Variant	normalised enrichment score
T11A	1.05
K5R F8L	1
S10A	1.32
G1A	1.04
S2A	1.71
T9A	1.6
K5A	0.0246
K5A L7A	-0.0454
P3A	2.3
F8L	0.381

Study 5
Target: Histone acetyltransferase KAT6A, winged helix 2, GST fusion (KAT6A, Homo sapiens, UniProt Q92794, residues 85-181)
Technique: protein binding microarray
Form: double-stranded DNA, one strand shown
Sample: in vitro
Concentration: not given
Setting: 8-mer, flanks averaged, mean of 2 arrays, mostly near background
Relative to: not given
Reading: higher = stronger binding
Construct (chain): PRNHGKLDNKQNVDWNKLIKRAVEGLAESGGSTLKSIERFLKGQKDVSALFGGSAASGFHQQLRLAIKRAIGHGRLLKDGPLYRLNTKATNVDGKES
Sequence	E-score
CCGAAACC	0.00274
AGAACATG	0.105
AGCCGGAG	0.258
GCAAAAGC	0.0519
AGCCCAAC	-0.0765
CGCATAAC	-0.0603
AGCCGTGC	0.00928
GTGATAGA	-0.0311
CTTCACGA	-0.147
CGCGTATA	-0.117
AAATGCAT	-0.0455
AGCGACAT	-0.0634
GTGGTGCA	-0.0592
ATTATTGA	-0.103
ACAAGAAA	0.074
CTCATGGC	0.112
ATTACCAG	-0.00649
AGTTGGCC	-0.0222
ACGGGGCT	-0.158
ACACTAGG	-0.0887
CCACGACA	0.195
CCAGGGGG	0.215
AAAGGATC	-0.127
CGCCCAAG	-0.0198
CCGCATTC	0.1

Study 6
Target: PABPC1L2, full length, GST fusion (mouse, UniProt A0ABA7IW68)
Technique: RNAcompete
Form: RNA
Sample: in vitro
Concentration: 20 nM
Setting: 7-mer, probes averaged, single round
Relative to: mean of 7-mers
Reading: higher = stronger binding
Construct (chain): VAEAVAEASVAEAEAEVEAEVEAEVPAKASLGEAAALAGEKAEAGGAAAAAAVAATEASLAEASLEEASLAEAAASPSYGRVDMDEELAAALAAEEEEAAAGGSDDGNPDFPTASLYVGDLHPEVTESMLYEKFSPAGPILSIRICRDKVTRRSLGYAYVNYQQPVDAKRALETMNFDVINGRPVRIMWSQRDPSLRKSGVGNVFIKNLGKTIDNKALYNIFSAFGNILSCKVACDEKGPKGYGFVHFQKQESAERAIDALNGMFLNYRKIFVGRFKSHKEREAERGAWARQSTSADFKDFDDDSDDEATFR
Sequence	7-mer Z-score
CCAUUAA	0.00798
UGGGAAA	0.635
UGAAAAA	10.8
UCGGAAA	0.472
UUUCAAG	-0.358
AACGCGC	0.0678
AAGGACC	0.236
CGAGUCG	-0.36
GCGAGCC	-0.11
UACAGAU	0.0406
UAUCUAU	-0.177
ACGAUAA	0.546
CUUGAAA	0.427
ACAGUUA	-0.0283
CCGUGGA	0.075
GAGCCUG	-0.164
GACACAA	0.178
CCGCCGA	-0.258
UGGGUGA	0.00798
GGCCUCC	-0.374
UUGGACA	0.0297
GACUUCC	-0.273
GGGCCUA	0.285
ACUACGU	-0.179
CAUCGAU	-0.179

Some of these lines once more (study 3):
Variant	binding fitness [natural log]
A46M	-1.58
Q55I	-1.51
Q55N	-1.62
K39R	-1.38
I28T	-1.28
A40V	-1.28
A29C	-1.46
L31D	-1.56
V35W	-1.34
A29T	-1.35
